Measurements pooled from the literature.
Each line is one published result; not all experiments were run side by side. Numbers after ± are the reported error.
B1: ENAH EVH1 domain 1-113 (Homo sapiens, UniProt Q8N8S7); chain MSEQSICQARAAVMVYDDANKKWVPAGGSTGFSRVHIYHHTGNNTFRVVGRKIQDHQVVINCAIPKGLKYNQATQTFHQWRDARQVYGLNFGSKEDANVFASAMMHALEVLNS
Chain of UniProt P06730 (whole entry, looked up): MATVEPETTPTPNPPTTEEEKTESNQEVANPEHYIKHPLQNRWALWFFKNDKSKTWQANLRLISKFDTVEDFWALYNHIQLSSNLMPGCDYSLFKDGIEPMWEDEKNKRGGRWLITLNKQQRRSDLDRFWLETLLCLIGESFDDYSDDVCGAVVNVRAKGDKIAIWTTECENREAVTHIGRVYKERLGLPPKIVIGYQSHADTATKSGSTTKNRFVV
Chain of UniProt P24530 (whole entry, looked up): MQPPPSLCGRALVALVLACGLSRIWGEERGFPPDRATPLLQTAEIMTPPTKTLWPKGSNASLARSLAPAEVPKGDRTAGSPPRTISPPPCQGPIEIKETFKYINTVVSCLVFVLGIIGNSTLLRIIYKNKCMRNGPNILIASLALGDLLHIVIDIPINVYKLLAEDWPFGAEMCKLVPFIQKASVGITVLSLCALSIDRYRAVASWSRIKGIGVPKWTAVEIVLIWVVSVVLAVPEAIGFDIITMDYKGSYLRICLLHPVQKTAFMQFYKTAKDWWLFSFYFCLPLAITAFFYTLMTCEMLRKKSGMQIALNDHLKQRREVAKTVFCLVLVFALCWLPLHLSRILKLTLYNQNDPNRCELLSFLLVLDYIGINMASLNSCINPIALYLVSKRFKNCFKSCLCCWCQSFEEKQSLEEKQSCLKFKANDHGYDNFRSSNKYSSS
Chain of UniProt Q14155 (whole entry, looked up): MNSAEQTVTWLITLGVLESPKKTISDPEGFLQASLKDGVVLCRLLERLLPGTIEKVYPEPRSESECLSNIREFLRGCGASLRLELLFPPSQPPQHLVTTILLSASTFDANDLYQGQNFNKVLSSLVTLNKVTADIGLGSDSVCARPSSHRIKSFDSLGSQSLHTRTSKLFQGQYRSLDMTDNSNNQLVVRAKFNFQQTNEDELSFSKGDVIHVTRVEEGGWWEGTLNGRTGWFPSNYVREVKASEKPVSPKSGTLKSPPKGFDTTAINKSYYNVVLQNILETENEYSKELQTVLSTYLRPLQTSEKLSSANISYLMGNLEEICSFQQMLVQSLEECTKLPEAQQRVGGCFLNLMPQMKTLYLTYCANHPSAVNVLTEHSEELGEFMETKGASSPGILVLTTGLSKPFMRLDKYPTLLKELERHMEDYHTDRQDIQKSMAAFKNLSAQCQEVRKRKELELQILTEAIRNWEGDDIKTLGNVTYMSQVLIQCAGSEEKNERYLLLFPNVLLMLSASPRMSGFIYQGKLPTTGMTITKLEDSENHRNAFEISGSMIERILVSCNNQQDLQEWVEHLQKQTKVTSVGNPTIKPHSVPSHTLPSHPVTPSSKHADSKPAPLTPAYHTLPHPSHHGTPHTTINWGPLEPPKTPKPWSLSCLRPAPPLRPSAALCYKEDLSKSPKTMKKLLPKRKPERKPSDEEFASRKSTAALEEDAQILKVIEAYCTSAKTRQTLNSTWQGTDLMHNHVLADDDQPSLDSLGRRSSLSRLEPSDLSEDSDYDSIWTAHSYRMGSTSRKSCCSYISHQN
Chain of UniProt Q9Y2X7 (whole entry, looked up): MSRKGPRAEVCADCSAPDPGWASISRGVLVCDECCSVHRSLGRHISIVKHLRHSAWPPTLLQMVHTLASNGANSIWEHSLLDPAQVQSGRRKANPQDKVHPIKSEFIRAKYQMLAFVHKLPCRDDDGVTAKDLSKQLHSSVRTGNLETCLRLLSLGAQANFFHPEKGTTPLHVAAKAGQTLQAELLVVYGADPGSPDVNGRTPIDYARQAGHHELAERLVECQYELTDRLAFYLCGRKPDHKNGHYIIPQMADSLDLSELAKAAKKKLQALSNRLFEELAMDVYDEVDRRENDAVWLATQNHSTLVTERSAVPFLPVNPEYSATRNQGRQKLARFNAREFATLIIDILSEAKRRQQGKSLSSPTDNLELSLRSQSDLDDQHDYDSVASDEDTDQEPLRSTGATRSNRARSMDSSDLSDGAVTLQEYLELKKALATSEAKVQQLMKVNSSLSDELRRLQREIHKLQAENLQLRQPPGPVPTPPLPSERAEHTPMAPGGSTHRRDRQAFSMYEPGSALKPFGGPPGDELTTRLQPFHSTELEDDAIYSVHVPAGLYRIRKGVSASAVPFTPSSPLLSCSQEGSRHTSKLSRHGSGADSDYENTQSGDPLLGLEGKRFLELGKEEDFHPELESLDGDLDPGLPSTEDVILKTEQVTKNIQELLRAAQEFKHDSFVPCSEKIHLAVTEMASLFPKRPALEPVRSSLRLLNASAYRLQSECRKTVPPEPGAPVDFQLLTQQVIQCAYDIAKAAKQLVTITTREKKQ
Chain of UniProt Q01727 (whole entry, looked up): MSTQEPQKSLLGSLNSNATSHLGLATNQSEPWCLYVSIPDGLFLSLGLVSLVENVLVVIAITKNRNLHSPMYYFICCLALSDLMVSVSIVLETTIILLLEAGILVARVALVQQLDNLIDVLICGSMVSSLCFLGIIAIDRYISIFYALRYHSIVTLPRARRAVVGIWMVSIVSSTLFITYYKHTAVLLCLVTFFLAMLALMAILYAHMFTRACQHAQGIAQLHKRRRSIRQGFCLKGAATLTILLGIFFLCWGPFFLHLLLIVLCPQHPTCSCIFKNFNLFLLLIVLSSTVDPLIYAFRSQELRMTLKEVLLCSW

Substance | target or system | assay | system | conditions | scale | quantity | value
ubiquitin monomer, pS65 (UniProt P0CG48) | PRKN (Homo sapiens, UniProt O60260) | UB chain synthesis |  |  | reference: background, higher = more activation | UB chain synthesis | 943 fold
alpha-MSH fragment fragment, N-acetyl, D-Phe, C-terminal amide | Mc1r (Mus musculus, UniProt Q01727) | cAMP accumulation, agonist | HEK293 |  |  | EC50 | 14.1 nM
ermE R36E (Saccharopolyspora erythraea) | C[S+](CC[C@H](N)C(=O)O)C[C@H]1O[C@@H](n2cnc3c(N)ncnc32)[C@H](O)[C@@H]1O | steady-state kinetics |  | pH 7.5 |  | K0.5 | 0.83 µM
calcitonin gene-related peptide |  | sandwich ELISA | human, plasma | dose not given, 60 min |  | concentration difference, delayed vs immediate centrifugation | no effect
EIF4G1 fragment x, stapled at Glu615 | EIF4E (Homo sapiens, UniProt P06730) | SPR |  |  |  | kon | 330000 M⁻¹ s⁻¹
RMFPNAPYL | HLA-A2 peptide complex | complex dissociation, flow cytometry, soluble TCR | peptide | 37 °C |  | half-life | 14.7 h
glucagon | GCGR (Homo sapiens, UniProt P47871) | GCGR activation, CRE luciferase reporter, agonist | HEK293 | stable human GCGR expression |  | EC50 | 0.01 nM
XPO1/RAN/RANBP1 GTP-bound Ran complex Q69L | UBTF (Homo sapiens, UniProt P17480) | SPR |  |  |  | Kd | 1710 nM
APP Aβ1-42, HiLyte Fluor 488 label (UniProt P05067) | microtubules, taxol-stabilized (Sus scrofa, UniProt P02550) | fluorescence polarisation |  | quadratic fit, with: taxol |  | Kd | 2720 ± 130 nM
ermE F43A (Saccharopolyspora erythraea) | C[S+](CC[C@H](N)C(=O)O)C[C@H]1O[C@@H](n2cnc3c(N)ncnc32)[C@H](O)[C@@H]1O | steady-state kinetics |  | pH 7.5 |  | K0.5 | 2.6 µM
EDNRB (Homo sapiens, UniProt P24530) | endothelin-1 mature | RT-qPCR |  |  | reference: non-biotinylated ligand, higher = more recovery | mRNA recovery | 248 fold
CXCL12 (Homo sapiens, UniProt P48061-2) | ACKR3 (UniProt P25106) | β-arrestin complementation, agonist |  |  |  | EC50 | 10 nM
SQETFSDLWKLLPENNV (TP53 15-31 (Homo sapiens, UniProt P04637); sequence looked up) | MDM2 fragment (Homo sapiens) | competition with labeled peptide, competitor, fluorescence polarisation | peptide | 30 min, room temperature |  | IC50 | 5220 ± 196 nM
ARHGEF7 (Homo sapiens, UniProt Q14155) | GIT1 (Homo sapiens, UniProt Q9Y2X7) | cross-linking MS | purified complex | with: DSSO |  | cross-linked residues | K692 to K131
SQETFSDLWKLLPENN | human cyclin F-Cln2 fusion | cell growth, competitive growth sequencing | peptide, Saccharomyces cerevisiae | peptide tiling library | direction not given | enrichment score | 1.5
B1 (ENAH EVH1 domain 1-113) | PCARE peptide (Homo sapiens) | tryptophan fluorescence |  |  |  | Kd | 5700 nM
CYP17A1 C22K/P23T/R20A/R21K (Homo sapiens) | CC(=O)[C@H]1CC[C@H]2[C@@H]3CCC4=CC(=O)CC[C@]4(C)[C@H]3CC[C@]12C | steady-state kinetics |  | 37 °C, truncated form, with: progesterone 0 – 50 µM, phosphatidylcholine |  | kcat | 0.0218 ± 0.0005 s⁻¹
tetraubiquitin (UniProt P0CG48) | DDX58 N-terminal CARDs (Homo sapiens) | IRF3 dimerization, activator | cell-free system | RIG-I(N)/Ub4 complex |  | EC50 | 0.404 nM

Repeated from above:
Substance | target or system | assay | system | conditions | scale | quantity | value
CYP17A1 C22K/P23T/R20A/R21K (Homo sapiens) | CC(=O)[C@H]1CC[C@H]2[C@@H]3CCC4=CC(=O)CC[C@]4(C)[C@H]3CC[C@]12C | steady-state kinetics |  | 37 °C, truncated form, with: progesterone 0 – 50 µM, phosphatidylcholine |  | kcat | 0.0218 ± 0.0005 s⁻¹
